Published values gathered from unrelated publications.
Every numbered part comes from another study and shows a few of its results, in no order. Positions count from the first letter of the parent shown.

Set 1
Target: Sal-like protein 4, full length isoform B (SALL4, Homo sapiens, UniProt Q9UJQ4-2, residues 1-616)
Method: universal PBM
Molecule type: double-stranded DNA, one strand shown
Sample: in vitro
Tested at: not given
Setting: 8-mer, flanks averaged, mean of replicates
Reading: higher = stronger binding
Quantity: E-score
Construct (chain): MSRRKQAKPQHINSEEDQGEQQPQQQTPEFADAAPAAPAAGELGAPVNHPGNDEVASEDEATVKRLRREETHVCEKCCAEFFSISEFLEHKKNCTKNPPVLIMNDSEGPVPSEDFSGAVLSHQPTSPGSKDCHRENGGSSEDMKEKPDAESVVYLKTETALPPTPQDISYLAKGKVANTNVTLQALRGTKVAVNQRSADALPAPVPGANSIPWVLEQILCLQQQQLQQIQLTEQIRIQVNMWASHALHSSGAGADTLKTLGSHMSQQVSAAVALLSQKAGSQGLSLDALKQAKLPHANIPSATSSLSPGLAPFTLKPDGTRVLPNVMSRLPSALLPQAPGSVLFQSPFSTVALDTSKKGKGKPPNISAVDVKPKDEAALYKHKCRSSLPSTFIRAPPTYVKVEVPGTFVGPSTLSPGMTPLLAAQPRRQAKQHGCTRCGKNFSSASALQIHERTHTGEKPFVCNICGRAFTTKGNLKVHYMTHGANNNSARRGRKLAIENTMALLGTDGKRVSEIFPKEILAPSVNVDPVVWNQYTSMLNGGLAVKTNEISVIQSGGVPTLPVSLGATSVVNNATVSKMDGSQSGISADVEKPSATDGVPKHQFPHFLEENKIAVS
CGGCCGAC: -0.196
GTAGCGTA: 0.00839
GAACTATA: 0.256
ATCTAAAT: 0.264
AAGTATTG: 0.236
CCCAGCCC: -0.262
CCACGGTA: -0.182
AAACAGTC: -0.0392
GAGTTGGA: -0.0422
TCCATAAA: 0.273
AAGTTTTG: 0.137
TAGGGAGA: -0.0193
TACGCCGA: -0.209
GCCGGGCC: -0.399
CGGCGGCC: -0.323
GCCCATGA: -0.279
GCCCACCC: -0.137
ACGTACTA: 0.14
CCACCAGG: -0.346
CATCGTTA: 0.102
ACATGCCG: 0.135
TGAGTAAA: 0.103
CCGTACAG: -0.00531
GCACATTA: 0.189
CGAGCTCA: -0.211

Set 2
Target: Interferon regulatory factor 5, full length, phosphomimetic (IRF5, Homo sapiens, UniProt Q13568-2, residues 1-514, K96S/S451D/S453D/S456D/S462D)
Method: protein-binding microarray
Molecule type: double-stranded DNA, one strand shown
Sample: in vitro
Tested at: 250 nM
Setting: 60-bp whole probe
With: salmon DNA 0.4 mg/ml
Relative to: random background probes
Reading: higher = stronger binding
Quantity: log fluorescence
Constant ends, left off below: GCCTAGCAC … GTCTTGATTCGCTTGACGCTGCTG
GGGTCACTCAATCTCAACAGGTGCTAG: -0.478 z-score
GCAAGAACAGCTGGTGGGCAGTGCTAG: -0.634 z-score
TTAGGTTTCGGGTATCGGCTAGTGCTA: 8.73 z-score
GACGATTTCAGTTTCGCGACGTGCTAG: 3.08 z-score
TCAAGTATTTTTTTCCAACTGTGCTAG: 0.561 z-score
GACTATTTCAGTTCCGAGACGTGCTAG: 1.39 z-score
GCCGAACTGGGGTTTCGAGACGTGCTA: 0.918 z-score
CACGATATCGGGTTTCGAGACGTGCTA: 3.47 z-score
TGGTGTCTCTGGCCTGGGTCGGTGCTA: -0.295 z-score
GACGCACTGCTTCTCCTGACGTGCTAG: -0.294 z-score
TTAGGACTGAGGACTGGGTTAGTGCTA: -0.707 z-score
TCATCTCTAGAAATTCCCACTGTGCTA: 0.377 z-score
GACGATATCAATATCGAGACGTGCTAG: 2.27 z-score
TGAGGTCTCCTACTGCTTTAGTGCTAG: -0.399 z-score
GTAGATTTCGGGTATCGATTAGTGCTA: 7.44 z-score
GACGGTTTCGGTCTCAGGACGTGCTAG: 9.54 z-score
TTAGAACCGGGGTATCGATTAGTGCTA: 2.52 z-score
GACGATATCAGTATCGGGACGTGCTAG: 3.06 z-score
GACGGTCTCCTTCTGCTGACGTGCTAG: -0.091 z-score
GACGATTTCAGTTTTGAGACGTGCTAG: 1.48 z-score

Set 3
Target: Centromere-binding protein 1, full length, His-tagged (CBF1, Saccharomyces cerevisiae, UniProt P17106, residues 1-351)
Sequence of UniProt P17106 (whole entry, looked up): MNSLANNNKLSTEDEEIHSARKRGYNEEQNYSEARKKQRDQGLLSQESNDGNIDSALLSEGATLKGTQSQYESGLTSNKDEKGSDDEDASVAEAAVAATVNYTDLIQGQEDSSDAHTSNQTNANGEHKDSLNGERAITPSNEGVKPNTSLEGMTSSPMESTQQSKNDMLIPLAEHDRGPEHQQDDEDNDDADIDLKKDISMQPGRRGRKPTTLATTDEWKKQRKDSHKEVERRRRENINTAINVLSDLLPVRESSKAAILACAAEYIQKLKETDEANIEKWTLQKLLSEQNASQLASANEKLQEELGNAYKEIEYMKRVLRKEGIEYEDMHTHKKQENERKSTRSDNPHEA
Method: competition protein-binding microarray
Molecule type: double-stranded DNA, one strand shown
Sample: in vitro
Tested at: 2 µM
Setting: whole 60-bp probe, lowest competitor level
With: Pho4 competitor, 0.05 µM
Reading: higher = stronger binding
Quantity: fluorescence intensity
Constant ends, left off below: … GTCTTGATTCGCTTGACGCTGCTG
CGAAAATAGCTATCGCACGTATCGAATACCAAATCA: 62.1 a.u.
GTTGCTTGCTAATTGCATGATCAAGTTGAGCCGATG: 82.5 a.u.
ACTCGGGTGTCCTGGCATGTGGGTCCAACAATGGTC: 58.3 a.u.
GTTATTCGAGATTTGCACGTGGACCCTGAAGTCTTG: 1120 a.u.
CCAGGGCCAGAGGGGCACGTGGCGCCGGTGAGTGGC: 681 a.u.
CCCATTTGGTTCTTGCGCGTGCTAATTCCGAGAGGC: 119 a.u.
TTATTGTCATTTGAAGGCGTGATGGGTATGTCGTTA: 138 a.u.
GATCTTGATCTTACCGTCGTGACGGGCAGCCTTGAT: 78.8 a.u.
GTCTTGTCTCATTGTCACGCAACTTTCCCCACTTCA: 149 a.u.
AGTCTCCTTTGCTCTTTCGTGATGGACCCACCGTAT: 58.8 a.u.
ACAAGCGGAGATTCACACGTTTAATTGGACCACTGG: 75.8 a.u.
AGTACTGTAGGCTTGCACACTTTGTTCGCACTCTTA: 66 a.u.
CATACCCAACCTTGTCACTTCACTTAAGATATTTGT: 88.3 a.u.
ATTGTCCCTTTCCATCACGTGTGGATTTAAGTAGCT: 3130 a.u.
ATGTTGGAGTTGGGACCGATGAAGTCAGCTTCAATT: 64.9 a.u.
GCAATCTTCCTGAATCACCTGGCACTTTAGATGAAA: 108 a.u.
TGTGTTGTATTCGGCCACGTGGGACCTCGCACATTG: 863 a.u.
CTTTCCCGATCTTGTAACGTGGGTGTAGCACATTTG: 98.1 a.u.
TGGGCCATTGGCCTTGATGTGATGAACAACAGACTT: 52.4 a.u.
ACAAATATCGCGAACCGCGTGAAGTGGCTTAGTTTT: 59.7 a.u.

Set 4
Target: RNA binding protein fox-1 homolog 2, RRM domain, GST-SBP tag (RBFOX2, Homo sapiens, UniProt O43251-10, residues 100-194)
Method: RNA Bind-n-Seq
Molecule type: RNA
Sample: in vitro
Tested at: 365 nM
Setting: natural RNA segment, single round, ends assumed
Relative to: no-protein control
Reading: higher = stronger binding
Quantity: RBNS enrichment (R)
Constant ends, left off below: GGGAGUUCUACAGUCCGACGAUC … UGGAAUUCUCGGGUGCCAA
Target sequence (chain): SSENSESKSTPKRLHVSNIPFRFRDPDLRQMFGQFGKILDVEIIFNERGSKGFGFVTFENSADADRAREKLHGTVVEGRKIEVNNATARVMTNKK
AAAGGGGAAGACCAGUGCUUCUUAAGACAGUGAGGGGUCUUCCUCCUGUGGCCAGGCGCUCCUGCACGUGCCCACUUCCUGCUCGGUACUGGUACUGGGUACAUGGGUAA: 0.411
CAGCUCACCAGACCUGAGAAGAGAAAAGCUAUGGUGACAGAGCUGAUCUUUUUUUUUUUUUUUUUUAAAGAAGAAAAGAAAGAAACGAAAAGAAAAAGCUGAAGAAAUCA: 0.535
CCCACCGCGUCUUGCCUUUGUGCUGACCCCGCGGGGCUGCGGCCGGCAGCCACUCUGCGUCUCUCACCUGCCAGGCCUGCGUGGCCUUAGGGUUGUUCCUGUUCUUUUAG: 0.314
ACUGAGCCCUGAACCCCAACCCUGCGGCCGGUGACUCUCCCCAACCCCCAUAUGCCCAGUCUUGCUUGAAGUAGCACAGACCCUGUGUGGGUUUGGCCCCUAGCUCCCAC: 0.398
UUUCUAAUUGUACCUGAGUUGACCAUCCUUUCUUUUUAUAGUAUAUUUCUUGUAUGAUAUUUUGUAAAGCUCUCACCUGGUUCUUUUAUGGGGACUUUUCGUUUUUGGGC: 0.376
ACUCCAGUCCUUCCUUGAGUGUAUCCUGUGGCCUACAUGUGUCUUCAUCCUUCCCUAAUGCCGUCUUGGGGCAGGGAUGGAAUAUGACCAGAAAGUUGUGGAUUAAAGGC: 0.461
CUUUUUCCCAGGGAGCCGUUUCAGGGGUUCUGGGCAGUAGGCUGGGCCUGGCCUCAGAACCUGGUGGCUCCUGCCUGCUCCUUCACUUUUGUAAAACCAUCCCCUUCACC: 0.671
GGAAACGACCAGGGCUGUGAAGAUCUACAGAGGAAGUACUCCAGUGUGGGGGAGGCAAGGGAAGAGGACGAAAAUGAUGAGAAUGACACUGAGGUCAUUGUUUAGAGCAG: 2.04
GCUUUGUCCAGGUGAGAACAUCCAUAAUUUGGGGCCCUGAGUUUUACCCAGACUCAAGGAGUUGGUAAAGGGUUAAUAGCCAGAUAGUAGAACCAGUGAGGAGAUGCGGC: 0.711
CCAGUGAAGACUUCUUGGGUAGUUUAGAUCCCAUGUCACCUCAGCUGAUAUUAUGGCAAGUGAUAUCACCUCUCUUCAGCCCCUAGUGCUAUUCUGUGUUGAACACAAUU: 0.359
UGUAACUGUUUCUUCAACUCUUGCAUCCCUGAAGGGAAGAUGCUCUUGGAUGCACCUGUAAUAUCUUAGUUACUGAAUGGGAAGCUGUAGGGGCCGAGGAGGGCAGAGGG: 1.7
UGUUCUCUUACACAUACGUAUGUUAGGAAAAUAGACACAUUUUCAAAGAGAAUGUUCUCUUACAUAUGUUAGGAAAAUAGGCACACUUUCAAAGAGAGGUAUAGGGGCUU: 0.399

Set 5
Target: CCNB3, cyclin fold, Cln2 fusion (human)
Method: yeast growth competition, sequencing
Sample: yeast
Setting: weak parent motif
Relative to: not given
Reading: higher = stronger binding
Quantity: normalised enrichment score
Starting sequence: E2F8 docking peptide (human); FVPQRKLEVSTED
V9L: -0.31
E8A: 0.195
L7A: 0.254
V9A: -0.142
R5A L7A: -0.251
K6A: 0.367
R5K V9L: 0.00832
S10A: 0.525
Q4A: -0.483
P3A: -0.208
V9F: 0.229

Some of these lines once more (set 5):
K6A: 0.367
R5A L7A: -0.251
V9L: -0.31
S10A: 0.525
V9A: -0.142
Q4A: -0.483
V9F: 0.229
L7A: 0.254
R5K V9L: 0.00832
E8A: 0.195
